Measurements gathered from unrelated publications.
Protocols differ between the studies behind these lines. Values joined by “and” are separate records of one study, mostly repeats; a detail may differ. ± gives the spread as reported.
CYP2C8: Cytochrome P450 2C8 (CYP2C8, Homo sapiens, UniProt P10632)
Sequence of UniProt P10632 (whole entry, looked up): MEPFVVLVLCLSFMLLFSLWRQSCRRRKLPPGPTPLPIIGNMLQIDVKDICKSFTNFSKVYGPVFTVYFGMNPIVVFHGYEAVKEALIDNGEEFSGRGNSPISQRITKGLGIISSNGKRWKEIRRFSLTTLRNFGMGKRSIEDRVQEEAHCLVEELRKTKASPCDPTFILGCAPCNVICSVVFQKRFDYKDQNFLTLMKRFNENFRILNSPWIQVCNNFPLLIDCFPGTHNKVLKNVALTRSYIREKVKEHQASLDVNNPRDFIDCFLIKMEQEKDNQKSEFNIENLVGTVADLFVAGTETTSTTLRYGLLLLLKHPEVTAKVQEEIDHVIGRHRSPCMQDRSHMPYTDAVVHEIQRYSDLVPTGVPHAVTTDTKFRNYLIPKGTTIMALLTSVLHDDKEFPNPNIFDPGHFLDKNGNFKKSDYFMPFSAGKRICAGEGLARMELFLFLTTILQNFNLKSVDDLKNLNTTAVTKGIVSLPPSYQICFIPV

| SMILES | tested on | test | test system | conditions | scale | measurement | value |
| --- | --- | --- | --- | --- | --- | --- | --- |
| CNC(=O)c1ccc(-c2cnc3ncc(Cc4ccc5ncccc5c4)n3n2)cc1F |  |  | Japanese patients | oral, 400 mg twice daily, any grade |  | Pancreatitis patients | 12% |
| COc1cc(N)c(Cl)cc1C(=O)NC1CCN(CCCOc2ccc(F)cc2)CC1OC (stereo not shown) |  |  | male Hartley guinea pigs, anaesthetized | intravenous, 0.3 mg/kg over 10 min, after infusion |  | mean blood pressure | 32 ± 0.2 mmHg |
| CCOc1cc(CC(=O)N[C@@H](CC(C)C)c2ccccc2N2CCCCC2)ccc1C(=O)O | CYP2C8 |  | human, plasma | 0.5 mg, day 1, median |  | AUC extrapolated fraction | 2.87% |
| Cc1cc(Nc2ccc(S(F)(F)(F)(F)F)cc2)n2nc(C(C)(F)F)nc2n1 | Plasmodium falciparum |  | human malaria patients, plasma | oral, 400 mg, median |  | Tmax | 8.1 h |
| O=C(N[C@H](Cc1c[nH]c2ccccc12)C(=O)Nc1ccncc1)c1ccc(N2CCN(c3ccc(F)cc3F)CC2)cc1F |  |  | Swiss Webster mouse, female, liver | oral, 50 mg/kg, 2 h, 20% HPβCD vehicle |  | concentration | 31.2 µM |
| CCc1cc(C(=O)NC)c2nccc(N3CCc4c(cc(Cn5ccnc5)cc4-c4cn(C)nc4C(F)(F)F)C3=O)c2c1 |  |  | Sprague Dawley rats | oral, 100 mg/kg twice daily, 7 days | relative to: vehicle | serum WBC change | -30.1% |
| O=C(O)CCC(=O)O.[2H]C([2H])([2H])Oc1cc(C)c2[nH]ccc2c1CN1CC[C@@H](C2CC2)C[C@H]1c1ccc(C(=O)O)cc1 |  | multiple ascending dose | healthy Chinese subjects | 125 mg twice daily |  | subjects with lymphopenia | 0% |
| CCN1/C(=C/C(C)=O)Sc2ccc(F)cc21 |  |  | cynomolgus monkey | oral, 100 mg/kg, 0.5 h post-dose | relative to: pre-dose | QTc interval change | 99.8 ± 2.1% |
| CCCCCCCOc1ccc(CCC(N)(CO)CO)cc1C(F)(F)F.Cl |  |  | healthy men, plasma | oral, 0.75 mg, day 21 |  | AUC(0-tau) | 95.7 ng·h/mL |
| CNCCOC12CC3(C)CC(C)(CC(Cn4ncc(-c5ccc(N6CCc7cccc(C(=O)Nc8nc9ccccc9s8)c7C6)nc5C(=O)O)c4C)(C3)C1)C2 |  |  | beagle dog, male, anaesthetised | intravenous bolus, 0.03 mg/kg, 15 min | relative to: baseline | QTcV interval change | 0 ms |
| CNC(=O)c1ccc(-c2cnc3ncc(Cc4ccc5ncccc5c4)n3n2)cc1F |  | CTCAE v4.0, any causality | human cancer patients | oral, 600 mg twice daily, expansion, other tumours, RP2D |  | bilirubin increase incidence (all grades) | 6% |
| O=C(Nc1nc2cccc(-c3ccc(CN4CCS(=O)(=O)CC4)cc3)n2n1)C1CC1 |  | measured: thrombocytopenia | rheumatoid arthritis patients | oral, 200 mg once daily, 4 weeks, any relatedness |  | treatment-emergent adverse events | 0% |
| O=C(O)CNC(=O)c1ncccc1O |  |  |  |  |  | pKa (acidic) | 3.2 |
| C=CC(=O)NC1CCN(c2ncc3ncnc(Nc4ccc(Oc5ccc6c(c5)ncn6C)c(C)c4)c3n2)CC1 |  |  | tiny-TIM gastrointestinal model | 240 mg, fed state, high-fat meal |  | maximum bioaccessibility | 45.9 ± 0.9 % recovery |
| CCOc1c([C@H](C)n2nc(C)c3c(N)ncnc32)cc(Cl)c(F)c1[C@@H]1CNC(=O)C1 |  | ECG | previously treated B-cell malignancy patients | oral, 45 mg once daily, baseline below thresholds |  | patients with HR above 100 bpm | 0% |
| CC1(C)CCC2=C(O1)c1ccccc1C(=O)C2=O | Toxoplasma gondii | parasite growth | HFF, bradyzoite, alkaline-induced |  |  | EC90 | 4.82 mM |
| CC(F)(F)c1cc(F)ccc1-c1sc2cc(O)ccc2c1Oc1ccc(/C=C/C(=O)O)cc1 |  |  | human patients, serum | oral, 400 mg once daily, cycle 1 day 28, fasted, mean |  | AUC(0-last) | 18400 ng·h/mL |
| CCN1CCN(Cc2ccc(NC(=O)c3ccc(C)c(NC(=O)c4cncc(-c5cccs5)c4)c3)cc2C(F)(F)F)CC1 |  |  | C57BL/6 mouse, plasma | intraperitoneal, 30 mg/kg, single dose |  | Vz/F | 36.8 L/kg |
| CC(C)[C@@H](CS(=O)(=O)C(C)C)N1C(=O)[C@@](C)(CC(=O)O)C[C@H](c2cccc(Cl)c2)[C@H]1c1ccc(Cl)cc1 |  |  | FVB mice Abcb1a/b Abcg2 knockout, spinal cord | oral, 20 mg/kg |  | AUC(0-inf) | 2290 ± 242 ng·h/mL |
| C=CCN1CC(=O)N2[C@@H](Cc3ccc(O)cc3F)C(=O)N(Cc3cccc(N4CC(N5CCN(CC)CC5)C4)n3)C[C@@H]2N1C(=O)NCc1ccccc1 |  | measured: Nausea | advanced solid tumour patients | all doses, expansion part, grade ≥3 |  | treatment-related adverse events | 0% |
| C[Si](C)(C)O[Si](C)(C)C |  |  |  |  |  | intercept A, log KAW vs 1/T | 11.8 |
| Cl.[2H]C([2H])([2H])CC(=O)c1cnc(NC(=O)C2CC2)cc1Nc1cccc(-c2ncn(C([2H])([2H])[2H])n2)c1OC |  | geometric mean | human | 20 mg twice daily, day 7, fed, liquid, multiple dose |  | CL/F | 12.8 L/h |
| C[C@@H](Nc1cc(F)cc(F)c1)c1cc(C(=O)N(C)C)cc2c(=O)cc(N3CCOCC3)oc12 |  |  | patients with advanced solid tumours | oral, dose not given, dose-finding phase |  | patients with related serious AE | 15.9% |

| SMILES | tested on | test | test system | conditions | scale | measurement | value |
| --- | --- | --- | --- | --- | --- | --- | --- |
| COc1cc2c3c(n(CCCN4CCOCC4)c(=O)c2cc1OC)-c1cc2c(cc1C3=O)OCO2 |  |  | beagle dog, female, plasma | intravenous infusion, 430 mg/m^2, 1 h infusion |  | CL | 48 L/h/m² and 33 L/h/m² |
| Cc1cc(NC2CCN(C(=O)OC3CCN(C(=O)/C=C/CN(C)C)C3)CC2)n2ncc(C(C)C)c2n1 (stereo not shown) |  | CTCAE v4.0, measured: Fatigue | patients with advanced solid tumours | oral, dose not given, all schedules, grade 3 or higher |  | patients with TEAE | 2% |
| Cc1cc(CN)cc(C)c1NC(=O)c1ccc(-c2cc(Cl)ccc2Cl)o1 | Toxoplasma gondii | parasite growth | HFF, bradyzoite, alkaline-induced |  |  | EC90 | 13.3 mM |
| Cn1cc(-c2cn3nccc3c(-c3cnn([C@]4(CC#N)C[C@@H](C#N)C4)c3)n2)cn1 |  |  | healthy human fed | 200 mg twice daily, day 10 |  | mean residence time | 17.1 h |
| Cc1cc(-c2nccc3c2ccn3CC(=O)Nc2ccc(-c3cnccn3)cn2)ccn1 |  |  | human | 15 mg once daily, multiple ascending dose |  | subjects with contact dermatitis | 0% |
| CC(C)Nc1nc2cc(Cl)c(Cl)cc2n1[C@H]1O[C@@H](CO)[C@H](O)[C@@H]1O |  | population PK model | human | oral, 70 kg body weight |  | Q/F | 1.24 L/h |
| C[C@@H]1CN(c2c(F)c(N)c3c(=O)c(C(=O)O)cn(C4CC4)c3c2F)C[C@H](C)N1 |  |  | male Hartley guinea pigs, anaesthetized | intravenous, 3 mg/kg over 10 min, after infusion |  | mean blood pressure | 33 ± 0.1 mmHg |
| Cc1nccc2c1c(=O)n(C)c1cc(OC[C@@H](N)CC(C)C)c(C#N)cc21 |  |  | rat, lumbar spinal cord | intrathecal, 0.3 µg, 30 min |  | concentration | 0.0908 µM |
| CC(C)=CCC/C(C)=C/CC/C(C)=C/CC[C@@](C)(O)CCC1=C(C)C(=O)C(C)=C(C)C1=O |  |  | human, plasma | oral, dose not given, with: itraconazole | relative to: with over without itraconazole | AUC0-inf ratio | 289% |
| COc1ccc(C[C@@H](C)[C@@H](C)Cc2ccc(OC)c(OC)c2)cc1OC |  |  | beagle dog female, plasma | oral, 100 mg/kg/day, day 28, median |  | Tmax | 1 h |
| O=C(c1nc2n(n1)[C@H](c1ccccc1)C[C@@H]2F)C1CC1 |  |  | human | oral, 75 mg | relative to: high-fat meal over fasted | AUC0-inf ratio | 0.984 |
| CC1(C)CC[C@]2(C(=O)O)CC[C@]3(C)C(=CC[C@@H]4[C@@]5(C)C[C@@H](O)[C@H](OC(=O)/C=C/c6ccc(O)cc6)C(C)(C)[C@@H]5CC[C@]43C)[C@@H]2C1 (relative stereo) |  |  | C57BL/6 mice, brain | intraperitoneal, 85 µmol/kg single dose |  | AUC(0-inf) | 8.37 nmol·h/g |
| COc1cc2[nH]c(C)c(-c3ccc(-c4ccccc4)cc3)c(=O)c2cc1Cl |  |  | PAMPA | pH 7.4 |  | Papp | < 5 ×10⁻⁶ cm/s |
| CNCc1ccc(-c2[nH]c3cc(F)cc4c3c2CCNC4=O)cc1 |  |  | patients | oral, 600 mg twice daily, grade 1 |  | constipation incidence | 15.4% |
| Cc1cc(Nc2ncnc3ccc(NC4=NC(C)(C)CO4)cc23)ccc1Oc1ccn2ncnc2c1 | CYP2C8 |  | human, plasma | oral, 300 mg single dose, day 1, arithmetic mean |  | AUC(0-inf) | 2650 ng·h/mL |
| N#Cc1ccc2c(c1)[C@H]1CCCN(C(=O)c3ccc4[nH]cnc4c3)[C@H]1C2 |  |  | human | 20 mg, day 7 | relative to: baseline | cortisol level change | -166 nmol/L |
| COc1cc2[nH]c(C)c(-c3ccc(OCc4ccccc4)cc3)c(=O)c2cc1Cl |  |  | PAMPA | pH 7.4 |  | Papp | < 5 ×10⁻⁶ cm/s |
| Oc1ccccc1-c1n[nH]cc1-c1ccnc2ccccc12 | MKK2 (Candida albicans) | kinase binding, MIB/MS competition | Candida albicans lysate | 1 µM | relative to: DMSO | log2 fold change | 0.02 |
| FC(F)(F)c1ccc(CNc2ccc(Cc3c[nH]c4ncc(Cl)cc34)cn2)cn1 |  | measured: blood creatine phosphokinase increased | patients with advanced solid tumours | oral, dose not given, grade 1 and 2, possibly related to drug |  | adverse event incidence | 31% |
| Cc1c2oc3c(C)ccc(C(=O)N[C@@H]4C(=O)N[C@H](C(C)C)C(=O)N5CCC[C@H]5C(=O)N(C)CC(=O)N(C)[C@@H](C(C)C)C(=O)O[C@@H]4C)c3nc-2c(C(=O)N[C@@H]2C(=O)N[C@H](C(C)C)C(=O)N3CCC[C@H]3C(=O)N(C)CC(=O)N(C)[C@@H](C(C)C)C(=O)O[C@@H]2C)c(N)c1=O |  | LC-MS | children with cancer, plasma | dose not given, 24 h |  | maximum plasma concentration | 4.8 µg/L |
| CC(C)=CCC1=C(O)C(=O)c2ccccc2C1=O |  | cyclic voltammetry | CH2Cl2, Bu4NPF6 | 0.1 mM | relative to: Ag/AgCl sat. KOH | Epa1 anodic peak potential | 1.35 V |
| NC(=O)C(CCCCNC(=O)CN1CCN(CC(=O)[O-])CCN(CC(=O)[O-])CCN(CC(=O)[O-])CC1)NC(=O)OCC1c2ccccc2-c2ccccc21.[Gd+3] (stereo not shown) |  |  | fetal bovine serum | 20 °C, 1.0 T, non-self-assembled |  | relaxivity r1 | 8.8 ± 0.2 mM⁻¹ s⁻¹ |
| O=C(/C=C/c1ccccc1)Nc1ccc(C(=O)Nc2nccs2)cc1 |  |  | sheep erythrocytes | 1 h, pH 7.5 |  | maximum haemolysis | 17.6% |
